Experimental data pooled from the literature.
Every numbered part comes from another study and shows a few of its results, in no order. Substitutions count along the parent as printed.

Block 1 — target: CCND2, cyclin fold, Cln2 fusion (human); method: yeast growth competition, sequencing; sample: yeast; setting: weak parent motif; reference: not given; reading: higher = stronger binding; endpoint: normalised enrichment score
Parent: NPAT docking peptide (human); PCHRRVLCFDSTT
Variant = F9A; value = 0.0276
Variant = R5A; value = 0.0426
Variant = S11A; value = -0.262
Variant = R5K; value = 0.242
Variant = H3A; value = 0.443
Variant = V6A; value = -0.0766
Variant = F9L; value = -0.224
Variant = R5A L7A; value = -0.0199
Variant = R4A; value = 0.14
Variant = D10A; value = 0.152

Block 2 — method: RNA Bind-n-Seq; form: RNA; sample: in vitro; concentration: 365 nM; reference: no-protein control; reading: higher = stronger binding; endpoint: RBNS enrichment (R)
Target: RNA binding protein fox-1 homolog 2, RRM domain, GST-SBP tag (RBFOX2, Homo sapiens, UniProt O43251-10, residues 100-194)
Setting: natural RNA segment, single round, ends assumed
Construct (chain): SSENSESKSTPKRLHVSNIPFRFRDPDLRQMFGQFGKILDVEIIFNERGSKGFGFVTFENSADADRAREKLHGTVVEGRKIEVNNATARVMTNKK
Oligonucleotide = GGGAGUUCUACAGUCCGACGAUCUCUCUGAAUGGAGCAUGGCUGUUUUCAUCUCACUGCUGUAUUCCAGAUGCUGCCCACAAAUGCUCCUGCUAUGUAACAGGUGCUCAAUAAAUGUAAAUGUAUAAGCACUCUGGAAUUCUCGGGUGCCAA; value = 0.921
Oligonucleotide = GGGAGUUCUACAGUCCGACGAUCAUCGGGUUCCCGGUAGCUGCCUGGUGACAGUGGUGGCCAAAUCCUCUGUCCUCCCUGUGGAAUCCCUCUGUGGGGCAGGAUGAGUCCUUUGGUGGCCCUCUACUCUAUUGUGGAAUUCUCGGGUGCCAA; value = 0.163
Oligonucleotide = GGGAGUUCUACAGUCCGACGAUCACUGCUGAGGACCCACCCAAUGGAAGGAUUCUUCUCAGCCUUGACCCUGGAGCACUGGGAACAACUGGUCUCCUGUGAUGGCUGGGACUCCUCGCGGGAGGGGACUGCGCUGGAAUUCUCGGGUGCCAA; value = 0.317
Oligonucleotide = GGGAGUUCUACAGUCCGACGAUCCUGGCCACAGUGAGGCAUGUAUCUGUAGUUCCUUGCUGAAUAACAAGAAGAUAUAUGUUUGUAUAUCUACAUGGCAUCCUGCACCUCAGAGCUAAGACAGGUUGCACGUCUGGAAUUCUCGGGUGCCAA; value = 3.36
Oligonucleotide = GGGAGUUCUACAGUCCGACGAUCUGUAAGCACAGAUGAUGAUCUAGCUUGCUUCUGUGACAAAUGUUGACCUUUGAGGUCUAAACAAAUAAUACCCCCGUCGGAAUGGUAACCGAGCCAGCAGCUGAAGUCUCUGGAAUUCUCGGGUGCCAA; value = 0.279
Oligonucleotide = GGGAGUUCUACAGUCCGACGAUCGUUUUGUUGAAAGCGCUAUUGAAUAUUGCAAUCUAUAUAGUGUAUUGGAUGGCUUCUUUUGUCACCCUGAUCUCCUAUGUUACCAAUGUGUAUCGUCUCCUUCUCCCUAAUGGAAUUCUCGGGUGCCAA; value = 0.297
Oligonucleotide = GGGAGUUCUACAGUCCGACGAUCACUCCCCUCUUGAUUUUCUAUCUUGAUUUAUCCUGCAGGCAUGUCCUACCUUUUGACAUUGUGACUUGGCUUUGUUAAAAACUUGCAAAAAAAAUCAUGUUUUAAAUGUUUGGAAUUCUCGGGUGCCAA; value = 4.2
Oligonucleotide = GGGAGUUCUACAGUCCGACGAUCCUAGACUUUUCUUUUUAAGGAAGUGCUGUUUUUUUUUGAGGGUUUUCAAAACAUUUUGAAAAGCAUUUACUUUUUUGACCACGAGCCAUGAGUUUUCAAAAAAAUCGGGGUGGAAUUCUCGGGUGCCAA; value = 0.444
Oligonucleotide = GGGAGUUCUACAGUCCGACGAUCACUGUGCCUAGCCGGGGCUGCCACAGCUCCCAGGUAUUUUCUACAGGACCAUCUGAGCGGGCAGCCAAACCUGCUUCACAGUAUCAAUAAAGCGGUUCUUUGAGGUCUGGUGGAAUUCUCGGGUGCCAA; value = 0.327
Oligonucleotide = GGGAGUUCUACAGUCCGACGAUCGGCGGCAGCAGUUUCAGCGUGCAGUUCCCAAACCCCAAAGCUGACCCUGCGCCCCAUUUGAAUACGGCCAGAGCCUGCUGGUUCACUUUGGGUAGAGCCGUGCCUCUUGGUGGAAUUCUCGGGUGCCAA; value = 0.444
Oligonucleotide = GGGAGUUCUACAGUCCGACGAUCCGUAAAAGUAUCAAAUACUUUCUCCUUGGUAUCUCAAGGAGGUUUCUGAGAUAGGUAGAAGUCUUGAGACGGAGGCUGGCCAUCCAUUCAGCCCUGAGCGUGCUGAGUUCUGGAAUUCUCGGGUGCCAA; value = 0.396
Oligonucleotide = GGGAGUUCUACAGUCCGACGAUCAAGAAAUGUCAUUUUUUUCAUCAAAGACACCAGGGCAGAUUUUUAAGUAAAGAAAGACAAUUGGACCCUUAAGAAUUUAUGCAUUUGUAAAGUUGCUGUUGAUCCAAAUAUGGAAUUCUCGGGUGCCAA; value = 0.885

Block 3 — method: DHFR PCA, deep sequencing; sample: yeast; with: (+)-ABA 0.39 µM; reference: wild-type fitted maximum; reading: higher = stronger binding; endpoint: relative binding score
Target: ABI1, truncated, D143A, DHFR fusion (Arabidopsis thaliana)
Setting: methotrexate growth selection, single substitutions
Parent: PYL1, truncated, DHFR fusion (Arabidopsis thaliana); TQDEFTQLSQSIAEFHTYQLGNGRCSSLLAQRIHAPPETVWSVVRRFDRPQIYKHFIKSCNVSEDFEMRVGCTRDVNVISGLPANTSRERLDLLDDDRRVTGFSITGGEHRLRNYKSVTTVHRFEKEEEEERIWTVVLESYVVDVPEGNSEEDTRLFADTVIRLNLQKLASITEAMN
Variant = E139D; value = -20%
Variant = P146D; value = 0.677%
Variant = Q31Y; value = -3.46%
Variant = M68Y; value = 1.86%
Variant = E129H; value = 37.9%
Variant = K58D; value = 5.58%
Variant = P50T; value = 9.23%
Variant = S11F; value = 28.4%
Variant = F56A; value = -14.5%
Variant = T135F; value = -9.75%
Variant = T154R; value = -16.1%
Variant = Y115D; value = -7.43%
Variant = M176Q; value = 22.1%
Variant = G81T; value = 33.7%
Variant = D92M; value = -6.89%

Single results of other studies
Substance = PhoQ, residues 284 288 289 292 302 303 SVTLVV; target = PhoP, residues 12 14 15 18 19 NIMAP (Escherichia coli, UniProt P23836); test = Sort-seq, refers to: YFP reporter; system = E. coli; setting = PhoQ-PhoP variant library, with: 10 µM Mg2+; scale = reference: high Mg2+ state, higher = stronger signaling; endpoint = fold induction; value = 0.545

Repeated from above (block 3):
Variant = E129H; value = 37.9%
Variant = K58D; value = 5.58%
Variant = P50T; value = 9.23%
Variant = S11F; value = 28.4%
Variant = F56A; value = -14.5%
